Measured values from different studies.
Lines come from different studies, so protocols differ. ± marks the error that the study gave.
Target: Mu-type opioid receptor (Oprm1, Rattus norvegicus, UniProt P33535)
Sequence of UniProt P33535 (whole entry, looked up): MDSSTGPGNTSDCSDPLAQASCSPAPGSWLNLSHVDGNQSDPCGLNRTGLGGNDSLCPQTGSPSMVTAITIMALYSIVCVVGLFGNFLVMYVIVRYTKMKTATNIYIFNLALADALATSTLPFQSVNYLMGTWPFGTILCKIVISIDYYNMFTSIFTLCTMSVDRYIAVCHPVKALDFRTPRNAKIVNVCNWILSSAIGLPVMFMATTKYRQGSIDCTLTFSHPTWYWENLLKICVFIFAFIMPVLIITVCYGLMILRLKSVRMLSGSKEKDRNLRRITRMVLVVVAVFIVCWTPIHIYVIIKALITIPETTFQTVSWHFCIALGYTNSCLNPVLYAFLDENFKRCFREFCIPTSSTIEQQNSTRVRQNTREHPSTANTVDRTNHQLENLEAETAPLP

`Cc1cc(O)cc(C)c1CC(N)C(=O)NC1CCNc2c(C)cc(Cc3ccccc3)cc21` (stereo not shown) has an efficacy of 91% (agonist; C6 cells expressing MOR; baseline: DAMGO at 10 µM).
`CC(C)C[C@H](NC(=O)[C@H](Cc1cccc2ccccc12)NC(=O)CNC(=O)[C@H](NC(=O)[C@@H](N)Cc1ccc(O)cc1)[C@H](C)O)C(=O)N[C@@H](CO)C(N)=O` gave an Emax of 93% (GTPγS binding, agonist, radiometric; cell membranes).
For `CC(=O)N1CCC(NC(=O)C(N)Cc2c(C)cc(O)cc2C)c2cc(CN3CCC4CCCCC4C3)ccc21` (stereo not shown), the maximal stimulation was 72 ± 3% (agonist; 10 µM; baseline: DAMGO).
`CCCC[C@@H]1NC(=O)[C@H](Cc2ccccc2)NC(=O)CNC(=O)[C@H](NC(=O)[C@@H](N)Cc2ccc(O)cc2)C(C)(C)SSC(C)(C)[C@H](C(=O)N[C@@H](Cc2c[nH]c3ccccc23)C(=O)NCc2cc(C(F)(F)F)cc(C(F)(F)F)c2)NC(=O)[C@@H]2CCCN2C1=O` gave an Emax of 26% (GTPγS binding, agonist, radiometric; cell membranes).
The maximal stimulation of `Cc1cc(O)cc(C)c1C[C@H](N)C(=O)N1Cc2ccccc2C[C@H]1CN[C@@H](Cc1ccccc1)C(=O)N[C@@H](Cc1ccccc1)C(N)=O` is reported as 18 ± 1% (agonist; 10 µM; baseline: DAMGO 10 µM).
The maximal stimulation of `Cc1cc(O)cc(C)c1CC(N)C(=O)NC1CCNc2ccc(Cc3ccc4c(c3)OCO4)cc21` (stereo not shown) is reported as 36 ± 3% (agonist; 10 µM; baseline: DAMGO).
For `CC(=O)N[C@@H](Cc1ccc(O)cc1)C(=O)N[C@@H](C(=O)N[C@H](C(=O)N[C@H](Cc1ccccc1)C(N)=O)C(C)C)C(C)C`, activity read “inactive” (GIRK current, agonist, whole-cell patch clamp; rat brain slice, locus coeruleus neurons; 10 to 30 µM).
With `CC(C)C[C@H](NC(=O)[C@@H](NC(=O)CNC(=O)[C@H](NC(=O)[C@@H](N)Cc1ccc(O)cc1)[C@H](C)O)C1Cc2ccccc2C1)C(=O)N[C@@H](CO)C(N)=O` the Emax was 70% (GTPγS binding, agonist, radiometric; cell membranes).
For `CCc1cc(Cc2ccccc2)cc2c1NCCC2NC(=O)C(N)Cc1c(C)cc(O)cc1C` (stereo not shown), the efficacy was 74% (agonist; C6 cells expressing MOR; baseline: DAMGO at 10 µM).
For `Cc1cc(O)cc(C)c1C[C@H](N)C(=O)N[C@@H]1CSCCSC(C)(C)[C@H](C(N)=O)NC(=O)C2(Cc3ccccc3C2)NC1=O`, the maximal inhibition was 76 ± 0.9% (cAMP production, inhibitor; C6 cells expressing mu opioid receptor; added: forskolin).
With `Cc1cc(O)cc(C)c1CC(N)C(=O)NC1CCNc2c(Cc3ccccc3)cccc21` (stereo not shown) the efficacy was 37% (agonist; C6 cells expressing MOR; baseline: DAMGO at 10 µM).
The maximal stimulation of `Cc1cc(O)cc(C)c1CC(N)C(=O)NC1CCNc2ccc(CN3CCc4ccccc4C3)cc21` (stereo not shown) is reported as 105 ± 6% (agonist; 10 µM; baseline: DAMGO).
With `NCc1ccc2[nH]c3c(c2c1)CC1(O)C2Cc4ccc(O)c5c4C1(CCN2CC1CC1)C3O5` (stereo not shown) the Ke was 11.8 ± 2.7 nM (antagonist; C6 cells expressing µ receptor; added: DAMGO).
`Cc1cc(O)cc(C)c1CC(N)C(=O)NC1CCNc2c(CN3CCCCC3)cc(Cc3ccccc3)cc21` (stereo not shown) has an efficacy of 93% (agonist; C6 cells expressing MOR; baseline: DAMGO at 10 µM).
`Cc1cc(O)cc(C)c1C[C@H](N)C(=O)N[C@@H]1CSCCSC(C)(C)[C@H](C(=O)O)NC(=O)C2(Cc3ccccc3C2)NC1=O` gave a maximal inhibition of 77 ± 2.4% (cAMP production, inhibitor; C6 cells expressing mu opioid receptor; added: forskolin).
For `Cc1cc(O)cc(C)c1CC(N)C(=O)NC1CCNc2c(C(=O)Nc3ccccc3)cc(Cc3ccccc3)cc21` (stereo not shown), the efficacy was 49% (agonist; C6 cells expressing MOR; baseline: DAMGO at 10 µM).
`Cc1cc(O)cc(C)c1CC(N)C(=O)NC1CCNc2ccc(Cc3ccoc3)cc21` (stereo not shown) has a maximal stimulation of 18 ± 2% (agonist; 10 µM; baseline: DAMGO).
`Cc1cc(O)cc(C)c1CC(N)C(=O)NC1CCNc2c(F)cc(Cc3ccccc3)cc21` (stereo not shown) gave an efficacy of 95% (agonist; C6 cells expressing MOR; baseline: DAMGO at 10 µM).
With `Cc1cc(O)cc(C)c1CC(N)C(=O)NC1CCNc2ccc(CN3CCCCCC3)cc21` (stereo not shown) the maximal stimulation was 52 ± 2% (agonist; 10 µM; baseline: DAMGO).
`CCCCc1cc(Cc2ccccc2)cc2c1NCCC2NC(=O)C(N)Cc1c(C)cc(O)cc1C` (stereo not shown) has an efficacy of 85% (agonist; C6 cells expressing MOR; baseline: DAMGO at 10 µM).
The maximal stimulation of `Cc1cc(O)cc(C)c1CC(N)C(=O)NC1CCNc2ccc(Cc3ccc4ncccc4c3)cc21` (stereo not shown) is reported as 34 ± 6% (agonist; 10 µM; baseline: DAMGO).
`NC(=O)[C@H](CO)NC(=O)[C@@H]1CCCN1C(=O)[C@H](Cc1ccc(O)cc1)NC(=O)CNC(=O)[C@H](Cc1ccccc1)NC(=O)[C@@H](CCCCN=C=S)NC(=O)[C@@H](N)Cc1ccc(O)cc1` gave an inhibition of 31 ± 2% ([3H]DAMGO binding, wash-resistant binding; about IC50).

Repeated from above:
`Cc1cc(O)cc(C)c1CC(N)C(=O)NC1CCNc2c(CN3CCCCC3)cc(Cc3ccccc3)cc21` (stereo not shown) has an efficacy of 93% (agonist; C6 cells expressing MOR; baseline: DAMGO at 10 µM).
`Cc1cc(O)cc(C)c1C[C@H](N)C(=O)N[C@@H]1CSCCSC(C)(C)[C@H](C(=O)O)NC(=O)C2(Cc3ccccc3C2)NC1=O` gave a maximal inhibition of 77 ± 2.4% (cAMP production, inhibitor; C6 cells expressing mu opioid receptor; added: forskolin).
For `Cc1cc(O)cc(C)c1CC(N)C(=O)NC1CCNc2c(C(=O)Nc3ccccc3)cc(Cc3ccccc3)cc21` (stereo not shown), the efficacy was 49% (agonist; C6 cells expressing MOR; baseline: DAMGO at 10 µM).
